Measurements pooled from the literature.
Parts stem from different laboratories: compare values within a part only.
UniProt P08631, sequence (whole entry, looked up): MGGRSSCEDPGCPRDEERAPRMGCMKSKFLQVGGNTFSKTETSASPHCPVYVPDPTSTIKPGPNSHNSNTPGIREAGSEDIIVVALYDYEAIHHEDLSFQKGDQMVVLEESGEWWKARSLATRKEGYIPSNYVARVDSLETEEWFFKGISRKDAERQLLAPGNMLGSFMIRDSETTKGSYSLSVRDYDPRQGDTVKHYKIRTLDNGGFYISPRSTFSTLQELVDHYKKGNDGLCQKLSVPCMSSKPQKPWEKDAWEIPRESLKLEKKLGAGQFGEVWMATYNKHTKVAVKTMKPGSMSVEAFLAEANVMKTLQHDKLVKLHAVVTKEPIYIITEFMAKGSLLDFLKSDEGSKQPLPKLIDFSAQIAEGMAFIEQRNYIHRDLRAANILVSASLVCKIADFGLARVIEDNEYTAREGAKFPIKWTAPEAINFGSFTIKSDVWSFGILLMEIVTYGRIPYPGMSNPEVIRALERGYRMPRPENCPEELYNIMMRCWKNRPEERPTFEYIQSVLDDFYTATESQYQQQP
UniProt Q9BWU1, sequence (whole entry, looked up): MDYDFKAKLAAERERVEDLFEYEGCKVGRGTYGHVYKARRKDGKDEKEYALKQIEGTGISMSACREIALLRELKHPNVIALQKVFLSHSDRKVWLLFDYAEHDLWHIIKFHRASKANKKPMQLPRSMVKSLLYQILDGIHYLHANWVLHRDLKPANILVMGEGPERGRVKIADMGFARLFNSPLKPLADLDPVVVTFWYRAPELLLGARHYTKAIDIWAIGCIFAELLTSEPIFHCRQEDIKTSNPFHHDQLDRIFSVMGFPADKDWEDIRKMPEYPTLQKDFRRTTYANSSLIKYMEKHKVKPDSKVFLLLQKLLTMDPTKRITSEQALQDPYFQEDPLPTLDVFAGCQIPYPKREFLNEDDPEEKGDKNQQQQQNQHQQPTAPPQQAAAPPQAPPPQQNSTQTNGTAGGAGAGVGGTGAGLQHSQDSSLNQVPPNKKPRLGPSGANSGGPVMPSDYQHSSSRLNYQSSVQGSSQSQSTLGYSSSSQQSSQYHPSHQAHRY
UniProt Q14004, sequence (whole entry, looked up): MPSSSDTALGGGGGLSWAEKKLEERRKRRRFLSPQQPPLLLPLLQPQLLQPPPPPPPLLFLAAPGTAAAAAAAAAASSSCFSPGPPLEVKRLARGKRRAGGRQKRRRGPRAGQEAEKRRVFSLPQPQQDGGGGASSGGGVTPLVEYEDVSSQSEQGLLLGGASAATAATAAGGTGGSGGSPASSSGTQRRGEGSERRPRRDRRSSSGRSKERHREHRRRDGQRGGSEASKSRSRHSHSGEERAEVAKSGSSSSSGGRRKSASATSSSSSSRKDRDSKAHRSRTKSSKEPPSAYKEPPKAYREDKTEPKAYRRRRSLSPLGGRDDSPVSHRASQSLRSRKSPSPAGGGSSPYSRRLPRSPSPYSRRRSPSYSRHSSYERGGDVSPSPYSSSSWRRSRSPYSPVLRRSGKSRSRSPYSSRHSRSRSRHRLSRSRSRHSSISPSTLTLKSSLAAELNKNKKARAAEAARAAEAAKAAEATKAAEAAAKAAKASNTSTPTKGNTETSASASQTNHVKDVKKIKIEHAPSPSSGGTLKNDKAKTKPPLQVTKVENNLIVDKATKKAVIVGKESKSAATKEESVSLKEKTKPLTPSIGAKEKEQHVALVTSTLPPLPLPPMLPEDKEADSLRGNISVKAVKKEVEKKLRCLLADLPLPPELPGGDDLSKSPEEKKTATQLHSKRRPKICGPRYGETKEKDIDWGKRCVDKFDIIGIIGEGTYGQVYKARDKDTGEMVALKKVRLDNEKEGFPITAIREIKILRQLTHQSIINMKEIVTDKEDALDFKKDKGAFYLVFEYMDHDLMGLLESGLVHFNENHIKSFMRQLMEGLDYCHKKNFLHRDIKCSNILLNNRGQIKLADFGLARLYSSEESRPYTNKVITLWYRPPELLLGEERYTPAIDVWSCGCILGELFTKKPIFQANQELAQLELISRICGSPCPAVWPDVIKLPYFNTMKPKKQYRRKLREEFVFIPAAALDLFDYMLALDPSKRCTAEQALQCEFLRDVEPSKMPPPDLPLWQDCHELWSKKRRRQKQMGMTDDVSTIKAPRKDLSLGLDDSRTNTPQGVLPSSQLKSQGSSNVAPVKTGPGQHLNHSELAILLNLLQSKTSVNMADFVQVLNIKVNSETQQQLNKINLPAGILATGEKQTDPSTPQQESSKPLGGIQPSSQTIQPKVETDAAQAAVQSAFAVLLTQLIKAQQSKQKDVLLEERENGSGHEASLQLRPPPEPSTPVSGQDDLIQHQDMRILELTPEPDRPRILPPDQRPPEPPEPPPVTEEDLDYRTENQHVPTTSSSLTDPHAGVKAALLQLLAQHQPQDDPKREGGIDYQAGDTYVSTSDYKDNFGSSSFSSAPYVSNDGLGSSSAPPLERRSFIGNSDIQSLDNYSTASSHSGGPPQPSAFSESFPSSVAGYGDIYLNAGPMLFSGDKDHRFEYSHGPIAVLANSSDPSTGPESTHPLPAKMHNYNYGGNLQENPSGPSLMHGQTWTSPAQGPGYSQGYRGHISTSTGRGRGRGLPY
UniProt P45985, sequence (whole entry, looked up): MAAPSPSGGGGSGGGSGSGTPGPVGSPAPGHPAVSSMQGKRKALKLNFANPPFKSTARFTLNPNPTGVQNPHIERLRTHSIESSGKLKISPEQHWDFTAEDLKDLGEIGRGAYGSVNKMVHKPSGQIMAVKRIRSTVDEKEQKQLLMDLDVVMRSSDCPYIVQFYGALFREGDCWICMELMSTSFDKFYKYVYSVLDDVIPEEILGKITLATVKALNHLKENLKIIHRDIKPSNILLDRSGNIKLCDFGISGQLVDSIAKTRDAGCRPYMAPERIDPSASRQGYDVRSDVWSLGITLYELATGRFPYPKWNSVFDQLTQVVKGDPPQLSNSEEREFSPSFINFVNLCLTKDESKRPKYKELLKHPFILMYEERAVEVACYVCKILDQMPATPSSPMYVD
UniProt Q6P3R8, sequence (whole entry, looked up): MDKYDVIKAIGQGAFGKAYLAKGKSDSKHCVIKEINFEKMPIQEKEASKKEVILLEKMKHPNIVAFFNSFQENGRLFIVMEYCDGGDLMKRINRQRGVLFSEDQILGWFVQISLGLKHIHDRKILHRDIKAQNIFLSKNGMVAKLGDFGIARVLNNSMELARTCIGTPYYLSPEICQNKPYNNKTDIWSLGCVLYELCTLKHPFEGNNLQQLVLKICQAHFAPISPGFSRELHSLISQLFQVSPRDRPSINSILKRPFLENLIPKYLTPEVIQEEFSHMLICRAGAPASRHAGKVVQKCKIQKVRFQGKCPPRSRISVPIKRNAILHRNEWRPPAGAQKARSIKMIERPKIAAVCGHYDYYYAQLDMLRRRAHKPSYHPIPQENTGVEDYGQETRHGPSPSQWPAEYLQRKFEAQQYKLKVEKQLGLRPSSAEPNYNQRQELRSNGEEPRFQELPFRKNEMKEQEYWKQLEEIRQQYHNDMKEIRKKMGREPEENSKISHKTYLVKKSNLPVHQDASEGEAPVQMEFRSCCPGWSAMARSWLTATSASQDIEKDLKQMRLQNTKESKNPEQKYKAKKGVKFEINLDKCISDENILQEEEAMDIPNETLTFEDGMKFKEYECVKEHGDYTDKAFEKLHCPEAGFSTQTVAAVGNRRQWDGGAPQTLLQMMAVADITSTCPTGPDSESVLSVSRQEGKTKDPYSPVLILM

Set 1 — observed: enzyme activity; mode: inhibitor; concentration: 0.5 µM; baseline: control
Target: Calcium/calmodulin-dependent protein kinase type II subunit gamma (CAMK2G, Homo sapiens, UniProt Q13555)
UniProt Q13555, sequence (whole entry, looked up): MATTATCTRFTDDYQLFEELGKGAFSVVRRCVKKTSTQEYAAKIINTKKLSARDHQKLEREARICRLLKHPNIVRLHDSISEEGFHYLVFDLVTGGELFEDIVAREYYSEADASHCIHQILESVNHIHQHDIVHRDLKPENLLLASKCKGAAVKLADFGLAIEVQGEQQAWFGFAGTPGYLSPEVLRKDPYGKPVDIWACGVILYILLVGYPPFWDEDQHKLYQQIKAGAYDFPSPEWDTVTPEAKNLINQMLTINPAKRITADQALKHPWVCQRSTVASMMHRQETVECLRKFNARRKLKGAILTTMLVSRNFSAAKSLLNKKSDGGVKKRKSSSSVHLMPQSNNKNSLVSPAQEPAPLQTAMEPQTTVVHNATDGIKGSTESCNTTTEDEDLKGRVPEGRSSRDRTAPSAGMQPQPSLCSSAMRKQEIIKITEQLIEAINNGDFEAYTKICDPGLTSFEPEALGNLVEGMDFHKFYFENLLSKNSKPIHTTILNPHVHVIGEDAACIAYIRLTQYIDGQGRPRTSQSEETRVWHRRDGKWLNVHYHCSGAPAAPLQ
The remaining activity of c1ccc(-c2[nH]ncc2-c2ccnc3ccccc23)nc1 is reported as 85.9%.
c1ccc(-c2cnc(Nc3ccc(OCCN4CCCC4)cc3)s2)cc1 has a remaining activity of 66.9%.
For Cc1nc2cc3nc(-c4cccs4)cnc3cc2n1C, the remaining activity was 101%.
Cc1cc2ncc(-c3ccccc3)nc2cc1C has a remaining activity of 105%.
With O=C1C(Cl)=C(N2C(=O)CCC2=O)C(=O)c2ccccc21 the remaining activity was 104%.
CCN(CC)CCNC(=O)c1c(C)[nH]c(/C=C2\C(=O)Nc3ccc(F)cc32)c1C has a remaining activity of 25.1%.
For O=C(NC(NC(=S)Nc1ccc(F)c([N+](=O)[O-])c1)C(Cl)(Cl)Cl)C(c1ccccc1)c1ccccc1 (centres unmarked), the remaining activity was 107%.
O=C1c2ccccc2-c2n[nH]c3cccc1c23 has a remaining activity of 91.1%.
With COc1cc2ncnc(Nc3ccc(O)c(Br)c3)c2cc1OC the remaining activity was 95.2%.
With Cn1nc2c3c(cccc31)C(=O)c1ccccc1-2 the remaining activity was 109%.
For O=C1Nc2ccc(Cl)cc2C1=Cc1cc(Cl)c(O)c(Cl)c1, the remaining activity was 119%.

Set 2 — technique: KINOMEscan; concentration: 10 µM; baseline: DMSO control; reading: lower = stronger binding
SMILES: COc1cc(C(=O)N2CCC(N3CCN(C)CC3)CC2)ccc1Nc1ncc2c(n1)N(C)c1ccccc1C(=O)N2C
The binding was 97% (STK36).
DAPK2 — binding: 67%.
For EPHA2: binding read 92%.
It gave 99% for binding (VRK2).
For PRKG2: binding read 74%.
For GRK7: binding read 100%.
TIE1 — binding: 100%.
EPHB6 — binding: 31%.

Set 3 — concentration: 1 µM
SMILES: N#Cc1ccc(Nc2ccc3[nH]c(=O)[nH]c3c2)c(Cl)c1
The remaining binding was 100% (CDC42BPB (Homo sapiens, UniProt Q9Y5S2); cell-free assay, competition with immobilised ligand).
For CDK19 (Homo sapiens, UniProt Q9BWU1); competition binding: remaining binding read 77%.
The remaining binding was 100% (CDK13 (Homo sapiens, UniProt Q14004); cell-free assay, competition with immobilised ligand).
It gave 100% for remaining binding (NEK5 (Homo sapiens, UniProt Q6P3R8); cell-free assay, competition with immobilised ligand).
It gave 100% for remaining binding (MAP2K4 (Homo sapiens, UniProt P45985); cell-free assay, competition with immobilised ligand).
For HCK (Homo sapiens, UniProt P08631); cell-free assay, competition with immobilised ligand: remaining binding read 100%.

Further values, each from its own experiment
For COc1ccc(-n2nc(C(N)=O)c3c2C(=O)N(c2ccc(N4CCCCC4=O)cc2)CC3)cc1, the viability was 65.3% (A-375; 100 µM, 60 h).

Some of these lines once more (set 3):
The remaining binding was 100% (CDK13 (Homo sapiens, UniProt Q14004); cell-free assay, competition with immobilised ligand).
The remaining binding was 100% (CDC42BPB (Homo sapiens, UniProt Q9Y5S2); cell-free assay, competition with immobilised ligand).
It gave 100% for remaining binding (MAP2K4 (Homo sapiens, UniProt P45985); cell-free assay, competition with immobilised ligand).
